# Measurements pooled from the literature.
# Parts stem from different laboratories: compare values within a part only.

# Block 1
# Target: Histone acetyltransferase KAT6A, winged helix 1, GST fusion (KAT6A, Homo sapiens, UniProt Q92794, residues 1-85)
# Technique: protein binding microarray
# Molecule type: double-stranded DNA, one strand shown
# Medium: in vitro
# Concentration: not given
# Notes: 8-mer, flanks averaged, mean of 2 arrays, mostly near background
# Relative to: not given
# Direction: higher = stronger binding
# Construct (chain): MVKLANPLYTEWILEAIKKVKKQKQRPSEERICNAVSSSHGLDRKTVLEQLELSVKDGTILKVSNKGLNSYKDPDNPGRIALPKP
Oligonucleotide,E-score
AATGGACT,-0.26
ATCTGCAC,-0.158
CCCGCCTC,0.3
ACGCAAGG,-0.131
ACAACACC,-0.0719
AAGATAGG,-0.236
TATGCCCA,-0.274
CGCGCTAC,0.417
TCGCACGA,0.147
ACCTTCCG,0.199

# Block 2
# Target: RING finger protein unkempt homolog, zinc fingers 1-6, GST-SBP tag (UNK, Homo sapiens, UniProt Q9C0B0, residues 30-357)
# Technique: RNA Bind-n-Seq
# Molecule type: RNA
# Medium: in vitro
# Concentration: not given
# Notes: RNA with constant flanks, human and mouse sites, ends assumed
# Relative to: input RNA pool
# Direction: higher = stronger binding
# Constant ends, left off below: GGGAGUUCUACAGUCCGACGAUC … CAACAGAGGAUUGAGCAUCA
# Target sequence (chain): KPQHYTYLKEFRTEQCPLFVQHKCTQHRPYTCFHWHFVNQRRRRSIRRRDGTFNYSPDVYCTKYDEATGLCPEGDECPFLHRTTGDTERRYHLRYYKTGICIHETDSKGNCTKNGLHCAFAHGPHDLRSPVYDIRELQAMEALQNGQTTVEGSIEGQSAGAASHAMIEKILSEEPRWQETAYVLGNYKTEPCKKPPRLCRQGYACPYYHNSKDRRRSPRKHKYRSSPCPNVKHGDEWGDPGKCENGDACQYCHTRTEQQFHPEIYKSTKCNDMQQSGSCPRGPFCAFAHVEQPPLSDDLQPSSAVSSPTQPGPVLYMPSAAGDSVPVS
Oligonucleotide,bound/input enrichment
GUGCAGACUGCCUCAAAACAAGUUGAUGGUGAUUAUGUUGUGUCUGAAUGGAGUGAAAUUAUAGAAUUCUGCACCGCAGACUAUUCAAAAGUUCAUCUAACACAAUUGUUGGAGAAGGCU,0.197 ratio
UUUAGACAAAGAGAAGGGCCUUUUUAUCCAACUUUAAGAUUACUUCAUAAAUAUCCUUUUAUCUUGCCACAUCAGCAGGUUGAUAAAGGAGCCAUCAAAUUUGUACUCAGUGGAGCAAAU,0.23 ratio
UAAAAUUGGGGGUGGGGGGAGGGUUGACAUUUUCCGACUGCCUGUUACGUGCCAAGUGCUUUUUGUUAAGGACAUAAUGUUUUUGACUGGGGAUCAUGUUUGGCUGAUGUAAAUAUUAAU,0.285 ratio
UCCAGAAUACACCAAAAAAAUAGAAAACCUAUGUGCUAUGGGCUUUGAUAGGAAUGCAGUAAUAGUGGCCUUGUCUUCAAAAUCAUGGGAUGUAGAGACUGCAACAGAAUUGCUUCUGAG,0.931 ratio
AAGGUCUUGGGCACUCGGAAGUUGAUGCAUGUAGCCUAUGAAGAGUUUGAAAAGGUCAUGGUGGCUUGCUUCGAAGUCUUCCAGACGUGGGACGACGAGUACGAGAAGCUCCAGGUGCUG,0.0904 ratio

# Block 3
# Target: Centromere-binding protein 1, full length, N-terminal tag (CBF1, Saccharomyces cerevisiae, UniProt P17106, residues 1-351)
# Sequence of UniProt P17106 (whole entry, looked up): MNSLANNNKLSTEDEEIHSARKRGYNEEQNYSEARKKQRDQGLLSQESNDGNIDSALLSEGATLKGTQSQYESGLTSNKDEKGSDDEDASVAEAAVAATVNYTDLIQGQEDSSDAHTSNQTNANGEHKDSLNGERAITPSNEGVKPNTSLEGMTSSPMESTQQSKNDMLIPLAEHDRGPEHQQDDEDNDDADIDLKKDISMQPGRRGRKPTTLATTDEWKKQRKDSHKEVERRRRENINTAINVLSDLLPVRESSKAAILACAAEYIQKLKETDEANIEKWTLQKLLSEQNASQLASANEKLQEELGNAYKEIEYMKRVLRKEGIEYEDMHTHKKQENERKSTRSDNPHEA
# Technique: protein-binding microarray
# Molecule type: double-stranded DNA, one strand shown
# Medium: in vitro
# Concentration: 0.8 µM
# Notes: whole 60-bp probe, no competitor
# Direction: higher = stronger binding
# Constant ends, left off below: … GTCTTGATTCGCTTGACGCTGCTG
Oligonucleotide,fluorescence intensity [a.u.]
GAAGAAGAAAGAGGTACCATGTGATTCGAGATTTAG,2230
CTAGTCAAAAAATCTCGTGAGACCTCCGGAATTTTC,577
CTATACATCAAAATCCACGTTCTCTTCATGGTATTC,553
CTACAATATACGAGCCACGTTTTTGGCGTCGCATTC,610
CTATAAAGATGAACAGGTGAGACAATATCAAAGTTC,675
CTAAGGAACAAACAAAACGCACGAAAATAGCTATTC,521
GAATCCACAGAGCTTCACATGTTTTACACCTCTTAG,551
GAATACTGGTCAGAGCACGATTGATGGTGCCATTAG,530
GAATTAGTTTGAACTCACGTGTTGCTGCTGAATTAG,3980
CTACCTCGCTCAGAACATCAGCGAGAGTTCCAGTTC,514
GAATAGAACCAGCCGCACATGGCCGGAGAAACTTAG,542

# Single results of other studies
Molecule,target,assay,system,setting,scale,quantity,result
"PhoQ, residues 284 288 289 292 302 303 ASTSDA","PhoP, residues 12 14 15 18 19 NHFRA (Escherichia coli, UniProt P23836)","Sort-seq, refers to: YFP reporter",E. coli,"PhoQ-PhoP variant library, added: 10 µM Mg2+","relative to: high Mg2+ state, higher = stronger signaling",fold induction,8.05

# Excerpt of the above (block 1):
Oligonucleotide,E-score
CCCGCCTC,0.3
TCGCACGA,0.147
ATCTGCAC,-0.158
